Measurements from different studies.
Each line is one published result; not all experiments were run side by side.
T1: DNA hairpin, 8 bp stem, HEG linker; GTTATATCTTGATATAAC
T2: DNA hairpin, inosine at 6; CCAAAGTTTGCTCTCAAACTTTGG
T3: DNA hairpin, hairpin, TTTT loop; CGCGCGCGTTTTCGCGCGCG
T4: DNA hairpin; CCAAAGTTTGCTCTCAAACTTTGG
T5: DNA hairpin, HEG linker; GTTATATCTTGATATAAC
T6: DNA hairpin; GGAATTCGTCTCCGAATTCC
T7: DNA hairpin, hairpin, T5 loop; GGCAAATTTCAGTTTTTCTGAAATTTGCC

`C[n+]1ccc(/C=N/NC(=O)c2cccc(C(=O)N/N=C/c3cc[n+](C)c4ccccc34)n2)c2ccccc21` has an IC50 of > 2500 nM (T1, DNA hairpin, 8 bp stem, HEG linker; thiazole orange displacement, competitor, fluorescent indicator displacement; pH 7.2, KCl 100 mM).
With `N=C(N)c1ccc(COc2ccc3nc(-c4ccc(C(=N)N)cc4)[nH]c3n2)cc1` the Kd was 10 nM (T2, DNA hairpin, inosine at 6; SPR kinetic fit; pH 7.4, 25 °C, NaCl 100 mM).
`[Ru+2].[Ru+2].c1cnc2c(c1)c1nc(-c3ccc(OCCOCCOCCOCCOc4ccc(-c5nc6c7cccnc7c7ncccc7c6[nH]5)cc4)cc3)[nH]c1c1cccnc12.c1cnc2c(c1)ccc1cccnc12.c1cnc2c(c1)ccc1cccnc12.c1cnc2c(c1)ccc1cccnc12.c1cnc2c(c1)ccc1cccnc12` has a Kd of 480 nM (T3, DNA hairpin, hairpin, TTTT loop; BLI; pH 7.04, Na+ 100 mM).
`N=C(N)c1ccc(OCc2nc3ccc(-c4ccc(C(=N)N)cc4)nc3[nH]2)cc1` gave a Kd of 185 nM (T4, DNA hairpin; SPR steady state; pH 7.4, 25 °C, NaCl 100 mM).
`C[n+]1ccc(/C=N/NC(=O)c2cncc(C(=O)N/N=C/c3cc[n+](C)c4ccccc34)n2)c2ccccc21` has an IC50 of > 2500 nM (T5, DNA hairpin, HEG linker; Thiazole Orange displacement, competitor, fluorescent indicator displacement; pH 7.2, KCl 100 mM).
Under “melting temperature shift”, `N=C(N)c1ccc(-c2ncc(-c3cnc(-c4ccc(C(=N)N)cc4)s3)s2)cc1` is recorded as 15.1 °C (T6, DNA hairpin; UV melting; 6 µM, pH 6.25, Na+ 100 mM; reference: target alone, higher = more stabilisation).
`[Ru+2].[Ru+2].c1cnc2c(c1)c1nc(-c3ccc(OCCOCCOCCOc4ccc(-c5nc6c7cccnc7c7ncccc7c6[nH]5)cc4)cc3)[nH]c1c1cccnc12.c1cnc2c(c1)ccc1cccnc12.c1cnc2c(c1)ccc1cccnc12.c1cnc2c(c1)ccc1cccnc12.c1cnc2c(c1)ccc1cccnc12` gave a Kd of 2660 nM (T3, DNA hairpin, hairpin, TTTT loop; BLI; pH 7.04, K+ 100 mM).
The Kd of `N=C(N)c1ccc(NCc2cccc(CNc3ccc(C(=N)NCc4ccc(CNC(=N)c5ccc(NCc6cccc(CNc7ccc(C(=N)N)cc7)c6)cc5)cc4)cc3)c2)cc1` is reported as 181 nM (T7, DNA hairpin, hairpin, T5 loop; SPR; 25 °C, NaCl 100 mM).
`N=C(N)c1ccc(-c2ccc(-c3ccc(-c4ccc(C(=N)N)cc4)[se]3)[se]2)cc1` has a Kd of 1220 nM (T6, DNA hairpin; SPR; pH 6.25, 25 °C, Na+ 100 mM).
`[Ru+2].[Ru+2].c1cnc2c(c1)c1nc(-c3ccc(OCCOCCOc4ccc(-c5nc6c7cccnc7c7ncccc7c6[nH]5)cc4)cc3)[nH]c1c1cccnc12.c1cnc2c(c1)ccc1cccnc12.c1cnc2c(c1)ccc1cccnc12.c1cnc2c(c1)ccc1cccnc12.c1cnc2c(c1)ccc1cccnc12` gave a Kd of 1150 nM (T3, DNA hairpin, hairpin, TTTT loop; BLI; pH 7.04, K+ 100 mM).

Excerpt of the above:
`N=C(N)c1ccc(-c2ccc(-c3ccc(-c4ccc(C(=N)N)cc4)[se]3)[se]2)cc1` has a Kd of 1220 nM (T6, DNA hairpin; SPR; pH 6.25, 25 °C, Na+ 100 mM).
